Published values of several laboratories.
Protocols differ between the studies behind these lines. ± gives the spread as reported.
BRAP ZnF-UBD domain: BRCA1-associated protein, ZnF-UBD domain (BRAP, Homo sapiens, UniProt Q7Z569)
UniProt Q7Z569, sequence (whole entry, looked up): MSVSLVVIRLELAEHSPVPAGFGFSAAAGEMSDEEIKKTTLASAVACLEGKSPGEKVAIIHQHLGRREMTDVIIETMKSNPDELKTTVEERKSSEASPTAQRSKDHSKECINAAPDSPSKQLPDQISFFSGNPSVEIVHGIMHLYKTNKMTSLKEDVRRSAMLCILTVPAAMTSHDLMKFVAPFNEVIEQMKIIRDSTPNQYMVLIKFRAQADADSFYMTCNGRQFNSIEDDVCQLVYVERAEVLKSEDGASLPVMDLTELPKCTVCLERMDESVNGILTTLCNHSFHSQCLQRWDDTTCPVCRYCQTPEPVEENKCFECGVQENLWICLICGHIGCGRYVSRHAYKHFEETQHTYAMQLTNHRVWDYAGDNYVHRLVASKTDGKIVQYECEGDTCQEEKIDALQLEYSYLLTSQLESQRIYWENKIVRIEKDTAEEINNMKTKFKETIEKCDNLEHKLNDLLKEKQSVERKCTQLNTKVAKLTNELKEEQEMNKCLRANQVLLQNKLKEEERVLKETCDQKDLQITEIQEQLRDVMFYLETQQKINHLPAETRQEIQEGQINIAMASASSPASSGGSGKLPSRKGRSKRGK
VCP: Transitional endoplasmic reticulum ATPase (VCP, Homo sapiens, UniProt P55072)
UniProt P55072, sequence (whole entry, looked up): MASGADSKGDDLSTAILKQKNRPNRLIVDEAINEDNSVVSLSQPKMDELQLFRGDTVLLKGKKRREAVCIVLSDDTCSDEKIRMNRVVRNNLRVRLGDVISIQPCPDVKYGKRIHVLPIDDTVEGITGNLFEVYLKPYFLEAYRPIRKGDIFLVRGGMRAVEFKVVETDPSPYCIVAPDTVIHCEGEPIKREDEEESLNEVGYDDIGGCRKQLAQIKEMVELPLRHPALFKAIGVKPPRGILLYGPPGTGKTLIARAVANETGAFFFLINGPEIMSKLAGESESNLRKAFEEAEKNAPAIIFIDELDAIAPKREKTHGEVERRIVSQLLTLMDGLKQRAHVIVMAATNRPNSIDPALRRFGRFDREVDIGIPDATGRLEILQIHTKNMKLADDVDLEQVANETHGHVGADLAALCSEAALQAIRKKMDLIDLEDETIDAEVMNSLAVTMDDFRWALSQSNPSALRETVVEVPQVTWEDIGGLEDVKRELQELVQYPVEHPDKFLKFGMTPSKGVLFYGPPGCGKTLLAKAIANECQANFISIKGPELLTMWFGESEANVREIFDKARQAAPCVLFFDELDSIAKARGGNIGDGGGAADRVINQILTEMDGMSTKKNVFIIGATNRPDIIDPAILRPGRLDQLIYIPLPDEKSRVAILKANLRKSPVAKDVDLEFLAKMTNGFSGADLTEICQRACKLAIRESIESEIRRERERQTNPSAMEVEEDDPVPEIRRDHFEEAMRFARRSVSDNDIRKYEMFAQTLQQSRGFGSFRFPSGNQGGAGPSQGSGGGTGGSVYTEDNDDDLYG
ESR2: Estrogen receptor beta (ESR2, Homo sapiens, UniProt Q92731)
UniProt Q92731, sequence (whole entry, looked up): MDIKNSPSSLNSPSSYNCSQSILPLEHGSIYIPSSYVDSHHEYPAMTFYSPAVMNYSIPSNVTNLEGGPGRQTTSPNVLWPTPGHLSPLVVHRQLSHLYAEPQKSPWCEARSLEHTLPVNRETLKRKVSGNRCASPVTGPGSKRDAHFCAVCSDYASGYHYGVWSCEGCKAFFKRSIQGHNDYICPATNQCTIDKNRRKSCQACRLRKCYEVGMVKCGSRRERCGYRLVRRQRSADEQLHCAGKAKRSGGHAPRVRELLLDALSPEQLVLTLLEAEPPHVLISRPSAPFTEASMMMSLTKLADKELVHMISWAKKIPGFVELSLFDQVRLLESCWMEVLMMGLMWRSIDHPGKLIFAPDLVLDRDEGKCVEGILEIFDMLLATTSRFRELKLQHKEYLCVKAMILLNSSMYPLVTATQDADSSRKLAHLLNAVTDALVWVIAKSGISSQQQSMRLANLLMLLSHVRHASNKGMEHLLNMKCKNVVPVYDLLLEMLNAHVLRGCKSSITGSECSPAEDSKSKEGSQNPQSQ
GPR84: G-protein coupled receptor 84 (GPR84, Homo sapiens, UniProt Q9NQS5)
UniProt Q9NQS5, sequence (whole entry, looked up): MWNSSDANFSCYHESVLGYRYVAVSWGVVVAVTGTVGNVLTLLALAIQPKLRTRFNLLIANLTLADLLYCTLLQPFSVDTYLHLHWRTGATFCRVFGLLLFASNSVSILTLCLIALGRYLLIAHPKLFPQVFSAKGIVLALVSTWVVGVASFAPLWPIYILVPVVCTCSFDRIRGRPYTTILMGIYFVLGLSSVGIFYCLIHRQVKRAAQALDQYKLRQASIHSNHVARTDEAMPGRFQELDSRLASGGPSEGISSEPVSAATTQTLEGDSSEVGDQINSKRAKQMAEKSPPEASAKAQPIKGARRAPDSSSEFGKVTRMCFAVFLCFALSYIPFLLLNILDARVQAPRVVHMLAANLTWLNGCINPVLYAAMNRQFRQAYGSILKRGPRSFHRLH
UniProt P28223, sequence (whole entry, looked up): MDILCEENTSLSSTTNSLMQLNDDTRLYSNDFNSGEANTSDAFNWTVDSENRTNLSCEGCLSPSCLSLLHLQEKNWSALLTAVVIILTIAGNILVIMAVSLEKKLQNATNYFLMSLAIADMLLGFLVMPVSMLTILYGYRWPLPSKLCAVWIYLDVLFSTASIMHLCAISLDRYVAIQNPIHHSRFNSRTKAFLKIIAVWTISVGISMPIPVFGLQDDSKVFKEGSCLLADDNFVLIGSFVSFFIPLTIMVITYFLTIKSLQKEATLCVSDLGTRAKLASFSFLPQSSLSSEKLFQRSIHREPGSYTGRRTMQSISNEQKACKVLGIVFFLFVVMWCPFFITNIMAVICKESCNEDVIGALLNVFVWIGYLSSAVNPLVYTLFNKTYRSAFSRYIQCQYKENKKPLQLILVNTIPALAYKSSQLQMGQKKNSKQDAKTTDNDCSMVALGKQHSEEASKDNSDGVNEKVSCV
UniProt Q99523, sequence (whole entry, looked up): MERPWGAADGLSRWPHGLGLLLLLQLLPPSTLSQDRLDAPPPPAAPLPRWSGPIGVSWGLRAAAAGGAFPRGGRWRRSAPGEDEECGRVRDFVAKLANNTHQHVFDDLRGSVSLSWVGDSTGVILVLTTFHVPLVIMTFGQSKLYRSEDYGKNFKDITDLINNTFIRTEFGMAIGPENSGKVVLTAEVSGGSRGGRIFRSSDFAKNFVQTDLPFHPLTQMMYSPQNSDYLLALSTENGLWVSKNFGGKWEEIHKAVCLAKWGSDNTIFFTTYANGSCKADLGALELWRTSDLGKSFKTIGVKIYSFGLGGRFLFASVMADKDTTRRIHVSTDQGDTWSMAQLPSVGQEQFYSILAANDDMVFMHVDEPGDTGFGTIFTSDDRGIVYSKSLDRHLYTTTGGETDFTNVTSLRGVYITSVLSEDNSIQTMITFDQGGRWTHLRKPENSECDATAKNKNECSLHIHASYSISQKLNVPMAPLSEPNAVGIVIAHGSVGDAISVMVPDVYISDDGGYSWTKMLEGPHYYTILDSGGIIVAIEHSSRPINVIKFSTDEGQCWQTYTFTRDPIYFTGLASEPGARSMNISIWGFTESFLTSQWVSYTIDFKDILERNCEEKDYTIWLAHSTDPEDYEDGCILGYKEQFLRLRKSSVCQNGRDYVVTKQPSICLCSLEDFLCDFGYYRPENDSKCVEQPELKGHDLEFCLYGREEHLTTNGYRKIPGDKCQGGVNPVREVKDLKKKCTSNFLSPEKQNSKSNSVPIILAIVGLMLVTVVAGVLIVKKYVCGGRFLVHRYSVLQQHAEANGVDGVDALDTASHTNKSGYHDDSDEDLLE
UniProt Q9R1P1, sequence (whole entry, looked up): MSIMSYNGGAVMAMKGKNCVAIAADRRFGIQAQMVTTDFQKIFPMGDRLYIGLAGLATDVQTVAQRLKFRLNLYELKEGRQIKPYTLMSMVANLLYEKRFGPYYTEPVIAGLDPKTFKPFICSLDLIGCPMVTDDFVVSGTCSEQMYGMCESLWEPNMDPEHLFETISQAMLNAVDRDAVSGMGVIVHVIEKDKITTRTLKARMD
UniProt O35955, sequence (whole entry, looked up): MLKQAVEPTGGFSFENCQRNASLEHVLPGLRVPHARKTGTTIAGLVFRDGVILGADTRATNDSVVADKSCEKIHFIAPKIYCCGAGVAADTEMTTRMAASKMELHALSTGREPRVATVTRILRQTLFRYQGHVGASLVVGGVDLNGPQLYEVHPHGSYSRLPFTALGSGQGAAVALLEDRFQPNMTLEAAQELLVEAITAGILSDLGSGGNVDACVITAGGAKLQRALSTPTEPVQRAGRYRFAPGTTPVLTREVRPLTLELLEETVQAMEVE
UniProt Q92633, sequence (whole entry, unmodified, looked up): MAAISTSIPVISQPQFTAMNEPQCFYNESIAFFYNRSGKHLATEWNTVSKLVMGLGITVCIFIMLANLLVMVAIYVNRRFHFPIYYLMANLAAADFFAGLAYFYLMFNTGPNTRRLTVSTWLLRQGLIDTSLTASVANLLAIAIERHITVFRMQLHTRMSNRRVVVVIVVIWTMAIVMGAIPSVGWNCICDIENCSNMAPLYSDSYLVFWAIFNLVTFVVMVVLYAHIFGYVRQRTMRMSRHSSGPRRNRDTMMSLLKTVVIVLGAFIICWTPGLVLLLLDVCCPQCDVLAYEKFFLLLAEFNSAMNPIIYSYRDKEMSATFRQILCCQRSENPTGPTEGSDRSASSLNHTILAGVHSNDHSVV

| Structure (SMILES) | target | test | system | conditions | quantity | value |
| --- | --- | --- | --- | --- | --- | --- |
| O=C(O)CCn1c(=O)oc2ccccc21 | BRAP ZnF-UBD domain | – | – | – | Kd | 993 µM |
| Clc1ccc(Nc2nc(NCc3ccccc3)c3ccccc3n2)cc1Cl | VCP | enzyme activity, inhibitor | – | – | IC50 | 8.1 ± 2.6 µM |
| O=c1cc(-c2ccc(O)cc2)oc2c([C@@H]3O[C@H](CO)[C@@H](O)[C@H](O)[C@H]3O)c(O)cc(O)c12 | ESR2 | array formation, agonist | GFP-ERβ PRL-HeLa | 1 h | EC50 | 0.107 µM |
| C=C1CN(S(=O)(=O)c2ccc(C)cc2)CCCN(CC2CCCCC2)CCCN(S(=O)(=O)c2ccc(OC)cc2)C1 | Sortilin (Homo sapiens, UniProt Q99523) | protein expression, flow cytometry | HEK-293T expressing sortilin-GFP | 24 h | DC50 | 0.5 ± 0.2 µM |
| CC[C@H](C)[C@H](NC(=O)[C@H](CS)NC(=O)[C@H](CCC(=O)O)NC(=O)[C@H](C)NC(=O)[C@@H](NC(=O)[C@@H](N)CCCNC(=N)N)[C@@H](C)CC)C(=O)N[C@@H](CC(C)C)C(=O)NCC(=O)N[C@@H](CCSC)C(=O)O | HLA class I histocompatibility antigen, A alpha chain, allele A*02:01 (Homo sapiens, UniProt P04439) | binding, competitor, radioligand competition | – | two days, room temperature, HLA-A*02:01 | IC50 | 6.72 µM |
| O=C(O)COc1cnc2ccccc2n1 | BRAP ZnF-UBD domain | – | – | – | Kd | 885 µM |
| CCCCCCCNc1[nH]c(=O)[nH]c(=O)c1N=O | GPR84 | cAMP | – | – | EC50 | 0.457 µM |
| O=C(O)CCC(=O)N1CCc2ccccc21 | BRAP ZnF-UBD domain | – | – | – | Kd | 646 µM |
| c1ccc(CNc2nc(N3CCN(c4ccccc4)CC3)nc3ccccc23)cc1 | VCP | enzyme activity, inhibitor | – | – | IC50 | 34 ± 11 µM |
| O=c1c(O)c(-c2ccccc2)oc2cc(O)cc(O)c12 | ESR2 | array formation, agonist | GFP-ERβ PRL-HeLa | 1 h | EC50 | 4.41 µM |
| Clc1ccc(Nc2nc(Nc3ccc(Cl)cc3)c3ccccc3n2)cc1 | VCP | enzyme activity, inhibitor | – | – | IC50 | 52 ± 10 µM |
| O=C(O)Cn1cc2ccccc2n1 | BRAP ZnF-UBD domain | – | – | – | Kd | 411 µM |
| O=c1cc(-c2ccc(O)c(O)c2)oc2cc(O)cc(O)c12 | ESR2 | array formation, agonist | GFP-ERβ PRL-HeLa | 1 h | EC50 | 2.1 µM |
| O=C(O)CCc1ccc2c(c1)OCO2 | BRAP ZnF-UBD domain | – | – | – | Kd | > 1000 µM |
| O=c1cc(N2CCC(Cc3ccccc3)CC2)[nH]c(=O)[nH]1 | GPR84 | cAMP | – | – | EC50 | 0.135 µM |
| COc1ccc(-c2nc(NCc3ccc(C)cc3)c3ccccc3n2)cc1 | VCP | enzyme activity, inhibitor | – | – | IC50 | 8 ± 2 µM |
| O=C1C[C@@H](c2ccc(O)c(O)c2)Oc2cc(O)cc(O)c21 | ESR2 | array formation, agonist | GFP-ERβ PRL-HeLa | 1 h | EC50 | 1.22 µM |
| CCCCCCCNc1cc(=O)[nH]c(=O)[nH]1 | GPR84 | cAMP | – | – | EC50 | 0.0115 µM |

| Structure (SMILES) | target | test | system | conditions | quantity | value |
| --- | --- | --- | --- | --- | --- | --- |
| O=C(O)CCn1ccccc1=O | BRAP ZnF-UBD domain | – | – | – | Kd | > 1000 µM |
| Clc1ccc(Nc2nc(NCc3ccccc3)c3ccccc3n2)cc1 | VCP | enzyme activity, inhibitor | – | – | IC50 | 5.4 ± 2 µM |
| O=c1cc(NCCc2cccs2)[nH]c(=O)[nH]1 | GPR84 | cAMP level, agonist | human cells | – | EC50 | 0.189 ± 0.02 µM |
| O=C(O)CCc1nc2ccccc2c2nc(Cc3ccccc3)nn12 | BRAP ZnF-UBD domain | – | – | – | Kd | > 1000 µM |
| COc1ccc([C@@H]2CC(=O)c3c(O)cc(O[C@@H]4O[C@H](CO[C@@H]5O[C@@H](C)[C@H](O)[C@@H](O)[C@H]5O)[C@@H](O)[C@H](O)[C@H]4O)cc3O2)cc1O | ESR2 | array formation, agonist | GFP-ERβ PRL-HeLa | 1 h | EC50 | 0.947 µM |
| O=C(O)Cc1nc2ccccc2[nH]1 | BRAP ZnF-UBD domain | – | – | – | Kd | > 1000 µM |
| c1ccc(CNc2nc(N3CCN(Cc4ccccc4)CC3)nc3ccccc23)cc1 | VCP | enzyme activity, inhibitor | – | – | IC50 | 33 ± 8 µM |
| COc1cc(-c2oc3cc(O)cc(O)c3c(=O)c2O)ccc1O | ESR2 | array formation, agonist | GFP-ERβ PRL-HeLa | 1 h | EC50 | 1.39 µM |
| Cc1ccccc1CCNc1cc(=O)[nH]c(=O)[nH]1 | GPR84 | cAMP level, agonist | human cells | – | EC50 | 3.22 ± 0.08 µM |
| O=[N+]([O-])c1ccc(-c2nc(NCc3ccccc3)c3ccccc3n2)cc1 | VCP | enzyme activity, inhibitor | – | – | IC50 | 11 ± 6 µM |
| Cc1ccc(CCNc2cc(=O)[nH]c(=O)[nH]2)cc1 | GPR84 | cAMP | – | – | EC50 | 0.0129 µM |
| CC(C)C[C@H](NC(=O)[C@H](CCc1ccccc1)NC(=O)CN1CCOCC1)C(=O)N[C@@H](Cc1ccccc1)C(=O)N[C@@H](CC(C)C)C(=O)[C@@]1(C)CO1 | Psmb10/Psmb3 (Mus musculus, UniProt O35955+Q9R1P1) | proteasome subunit activity | Ba/F3 BCR-ABL1 T315I | 1 h pulse | IC50 | 0.0609 ± 0.00475 µM |
| CCc1oc2c([C@H](CO)N(CC)CC)cccc2c1C | Lysophosphatidic acid receptor 1 (LPAR1, Homo sapiens, UniProt Q92633, W271F) | Gi protein dissociation, agonist, NanoBiT | HEK293T | – | EC50 | 0.0085 µM |
| CCCCCCCCCCNc1cc(O)nc(O)n1 | GPR84 | agonist | – | – | EC50 | 0.363 µM |
| O=c1c(O[C@@H]2O[C@H](CO)[C@@H](O)[C@H](O)[C@H]2O)c(-c2ccc(O)c(O)c2)oc2cc(O[C@@H]3O[C@H](CO[C@@H]4O[C@H](CO)[C@@H](O)[C@H](O)[C@H]4O)[C@@H](O)[C@H](O)[C@H]3O)cc(O)c12 | ESR2 | array formation, agonist | GFP-ERβ PRL-HeLa | 1 h | EC50 | 8.27 µM |
| N#C[C@@]12C[C@@H]1[C@@H](n1cnc3c(NC4CCCC4)nc(I)nc31)[C@H](O)[C@@H]2O | 5-hydroxytryptamine receptor 2A (HTR2A, Homo sapiens, UniProt P28223) | antagonist, Gq dissociation BRET | – | human receptor | Kb | 6.71 µM |
| O=c1cc(NCCc2cccc(Cl)c2)[nH]c(=O)[nH]1 | GPR84 | agonist | – | – | EC50 | 0.302 µM |
| COc1ccc(-c2oc3c(CC=C(C)C)c(O[C@@H]4O[C@H](CO)[C@@H](O)[C@H](O)[C@H]4O)cc(O)c3c(=O)c2O[C@@H]2O[C@@H](C)[C@H](O)[C@@H](O)[C@H]2O[C@@H]2O[C@@H](C)[C@H](O)[C@@H](O)[C@H]2O)cc1 | ESR2 | array formation, agonist | GFP-ERβ PRL-HeLa | 1 h | EC50 | 1.89 µM |

A few entries again:
| Structure (SMILES) | target | test | system | conditions | quantity | value |
| --- | --- | --- | --- | --- | --- | --- |
| CCCCCCCNc1cc(=O)[nH]c(=O)[nH]1 | GPR84 | cAMP | – | – | EC50 | 0.0115 µM |
| O=C(O)CCn1ccccc1=O | BRAP ZnF-UBD domain | – | – | – | Kd | > 1000 µM |
| Cc1ccccc1CCNc1cc(=O)[nH]c(=O)[nH]1 | GPR84 | cAMP level, agonist | human cells | – | EC50 | 3.22 ± 0.08 µM |
| CCCCCCCNc1[nH]c(=O)[nH]c(=O)c1N=O | GPR84 | cAMP | – | – | EC50 | 0.457 µM |
